Results from different studies.
Every numbered part comes from another study and shows a few of its results, in no order. Positions count from the first letter of the parent shown.

Series 1 — technique: protein-binding microarray; form: double-stranded DNA, one strand shown; medium: in vitro; concentration: not given; direction: higher = stronger binding
Target: Protein max, full length (MAX, Homo sapiens, UniProt P61244-2, residues 1-151)
Notes: k-mer, scored over probes, only values ≥0.25
Oligonucleotide	E-score
CATGGCTC	0.333
CTCATGAC	0.288
CGTGGGTA	0.351
CAGCGTGG	0.457
ACATGTCC	0.35
ACGTGTCG	0.438
CATACATG	0.27
ATGGGGGC	0.282
CTCCCCAC	0.252
GACATGCC	0.335

Series 2 — target: CCNE1, cyclin fold, Cln2 fusion (human); technique: yeast growth competition, sequencing; medium: yeast; notes: weak parent motif; reference: not given; direction: higher = stronger binding
Starting sequence: CDC6 docking peptide (human); TLKGRRLVFDNQL
Substitution	normalised enrichment score
TLCGRRLVFDNQL [K3C]	0.958
TLKGRRLGFDNQL [V8G]	0.107
TLKGRRLVFDRQL [N11R]	0.854
TLHGRRLVFDNQL [K3H]	-0.12
TLKGRMLVFDNQL [R6M]	1.04

Series 3 — technique: RNA Bind-n-Seq; form: RNA; medium: in vitro; concentration: not given; reference: input RNA pool; direction: higher = stronger binding
Target: RING finger protein unkempt homolog, zinc fingers 1-6, GST-SBP tag (UNK, Homo sapiens, UniProt Q9C0B0, residues 30-357)
Sequence of UniProt Q9C0B0 (30-357, looked up): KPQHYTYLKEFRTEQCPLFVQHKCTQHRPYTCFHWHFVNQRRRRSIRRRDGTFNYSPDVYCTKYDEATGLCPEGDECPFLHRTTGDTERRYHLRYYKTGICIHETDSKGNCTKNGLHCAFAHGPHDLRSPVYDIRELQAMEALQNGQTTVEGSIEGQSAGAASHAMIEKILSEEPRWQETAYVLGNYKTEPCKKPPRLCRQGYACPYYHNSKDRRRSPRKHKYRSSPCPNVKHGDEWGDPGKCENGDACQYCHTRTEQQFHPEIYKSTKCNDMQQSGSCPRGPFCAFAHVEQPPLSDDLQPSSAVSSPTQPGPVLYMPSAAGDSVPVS
Notes: RNA with constant flanks, human and mouse sites, ends assumed
All sequences stand within: GGGAGUUCUACAGUCCGACGAUC … CAACAGAGGAUUGAGCAUCA
Oligonucleotide	bound/input enrichment
GAGGAGAGUCUCACUGUAGAAAGUACUGACUUGAACGAUGAAAGAACAGGGGAGAGUCUCACUGUAGAAAGUACUGACUUGAACGAUUCUGCAGUAAACAUAGAAGCAUUUGUAGAGAGC	4.04 ratio
ACCAUGCACAAUUUUGUACGGAAGACAUUCUUCAGCCUGGCCUUCUGUGACUUCUGCCUUAAGUUUCUGUUCCAUGGAUUCCGCUGCCAGACCUGUGGCUACAAGUUCCACCAGCAUUGU	0.182 ratio
CUUUUGCAGUUUGACACUAAGAUAACUUCUGUGUGCAUUUUUCUAUGCUUUUUUAAAAACUAGUUUCAUUUCAUUUUCAUGAGAUGUUUGGUUUAUAAGAUCUGAGGAUGGUUAUAAAUA	0.317 ratio
GAGAAAGGCACCAUGGAGAAGAGUGGCCUGGAGUCCGCUGUCUGUGUGACCAAUGUCAGGUCAUUCACGUCUGCGUUUCUCUUCUCCAUUGAGGUUCAAGUGACCAUUGGGUUUGGAGGG	0.109 ratio
GCAUUGGCCCAAGCUGAACUUCUUAAGCGCCAGGAAGAACUAGAAAGAAAAGCCGCAGAAUUAGAUCGUCGGGAACGAGAAAUGCAAAACCUCAGUCAACAUGGUAGAAAAAAUAAUUGG	1.04 ratio
UCUGGCAUUCUCAAUGACAGCAUGUGUGGCGGCAUGCAGCUGCUUCCAGAUCCCUUAUAUUCUCUUCCCACGGACAACACGUACCUUUUAACAAUCACGUCCACGGAUAAUGGCAGAAUC	0.149 ratio
UCCCUGCUUUGGACCCUGCUACAGAAUGCCUCUCCUGCGUGUCCCACACCAAGCCCUGCUGUGUGUCCCCGUCCAAGCUCUCCUGCGUGUCCCCCUCCAAGCCCCGCUGUGUGUCCCCCU	0.575 ratio
GAGAAGACAGGGCACAGUGGUACGCUGGAUCCCAAGGUGACUGGUUGUUUAAUCGUGUGCAUAGAACGAGCCACUCGCUUGGUGAAGUCACAACAGAGUGCAGGCAAAGAGUAUGUGGGG	0.328 ratio
UCACAAGCACAAAUCUUUCCCACUAGCCAUUUAAUAAGUUAAAAAAAGAUACACAAACCUACUAGUCUUGAACAAACUGUCAUACGUAUGGGACCUACACUUAAUCUCUAUGCUUUACAC	28 ratio
CCCAGUUUCAUCGGACUCCCUGGCCCCAUCCCGUCCCCGCCCUGGCCCCUUUGUGCCCCUUCUCAUCGUUUUCUCCCUCCUUCCCGGGCUUGGCGUCCCUUCUCCACCCCUAACUCCUUC	1.16 ratio

Mixed results
Substance	target	assay	system	setting	scale	quantity	value
PhoQ, residues 284 288 289 292 302 303 SCCLKL	PhoP, residues 12 14 15 18 19 NHFIF (Escherichia coli, UniProt P23836)	Sort-seq, measured: YFP reporter	E. coli	PhoQ-PhoP variant library, together with: 10 µM Mg2+	reference: high Mg2+ state, higher = stronger signaling	fold induction	2.77

Some of these lines once more (series 1):
Oligonucleotide	E-score
GACATGCC	0.335
ATGGGGGC	0.282
ACATGTCC	0.35
